Published values pooled from the literature.
CALCR: Calcitonin receptor (CALCR, Homo sapiens, UniProt P30988)
VHL/BRD9 with Elongin B/C: VHL/BRD9, with Elongin B/C (Homo sapiens, UniProt P40337+Q9H8M2)

| SMILES | target or system | assay | test system | setting | how to read | endpoint | result |
| --- | --- | --- | --- | --- | --- | --- | --- |
| CC[C@H](C)[C@@H](C(=O)N[C@@H](CC(C)C)C(=O)N[C@@H](CO)C(=O)N[C@@H](CO)C(=O)N[C@H](C(=O)N[C@@H](CCC(=O)O)C(=O)N[C@H](C(=O)NCC(=O)N[C@@H](CO)C(=O)N[C@@H](CC(N)=O)C(=O)N[C@H](C(=O)N1C[C@H](O)C[C@H]1C(N)=O)[C@@H](C)O)C(C)C)[C@@H](C)O)N(C)C(=O)[C@H](C)NC(=O)CN(C)C(=O)[C@H](Cc1ccccc1)NC(=O)[C@H](CO)NC(=O)[C@H](CO)NC(=O)[C@H](CCCNC(=N)N)NC(=O)[C@H](CCC(N)=O)NC(=O)[C@H](CC(C)C)NC(=O)[C@H](Cc1ccccc1)NC(=O)[C@H](Cc1c[nH]cn1)NC(=O)[C@H](C)NC(=O)[C@H](CC(C)C)NC(=O)[C@H](CCCNC(=N)N)NC(=O)[C@H](CCC(=O)O)NC(=O)[C@@H](NC(=O)[C@H](C)NC(=O)[C@@H]1CCCNC(=O)C[C@H](NC(=O)[C@H](CCCNC(=N)N)NC(=O)CC[C@H](NC(=O)CCCCCCCCCCCCCCCCCCC(=O)O)C(=O)O)C(=O)NCC(=O)N[C@@H]([C@@H](C)O)C(=O)N[C@@H](C)C(=O)N[C@@H]([C@@H](C)O)C(=O)N1)[C@@H](C)O | CALCR | cAMP, agonist |  |  |  | EC50 | 1.48 nM |
| CC(=O)NCC1CCCCN1c1nc(N2CCN(c3nnc[nH]3)CC2)nc(N2CC3C(CCOc4cc(-c5scnc5C)ccc4CNC(=O)[C@@H]4C[C@@H](O)CN4C(=O)[C@@H](NC(=O)C4(F)CC4)C(C)(C)C)C3C2)n1 (stereo partly drawn) | VHL/BRD9 with Elongin B/C | ternary complex formation, AlphaScreen |  | added: 50 nM His-BRD9 and 20 nM biotin-VCB |  | EC50 | 226 nM |
| O=S(=O)(c1cccc(-c2ccc3ncnc(Nc4ccc(OCc5cccc(F)c5)c(Cl)c4)c3c2)c1)N1CCCC1 | Leishmania major | intracellular amastigote growth, luciferase | RAW264.7 macrophages |  |  | EC50 | > 15000 nM |
| CSCC[C@H](NC(=O)[C@H](CC(C)C)NC(=O)CNC(=O)[C@H](Cc1ccccc1)NC(=O)[C@H](Cc1ccccc1)NC(=O)[C@@H](N)CCC(N)=O)C(N)=O | TACR1 (Homo sapiens, UniProt P25103) |  |  |  |  | EC50 | 63.1 nM |
| Cc1ncsc1-c1ccc(CNC(=O)[C@@H]2C[C@@H](O)CN2C(=O)[C@@H](NC(=O)C2(F)CC2)C(C)(C)C)c(OCCC2CCN(c3nc(NCC(C)(C)C4(O)CCOC4)nc(N4CCC[C@H]4Cn4ccnn4)n3)CC2)c1 (stereo partly drawn) | VHL/BRD9 (Homo sapiens, UniProt P40337+Q9H8M2) | ternary complex formation, NanoBiT | HEK293T | 2 h, added: MLN4924 2 µM |  | EC50 | 51 nM |
| COC1CN([C@H]2CC[C@H]([C@@]3(C)Oc4c(Cl)cc(C(=O)NCc5c(SC)cc(C)[nH]c5=O)c(C)c4O3)CC2)C1 |  | RNA-seq, refers to: CAMSAP3 | human, whole blood | dose not given, 24 h | baseline: pretreatment baseline | log2 fold change | 3.92 |
| C=C(NC(=O)c1csc(-c2nc3c(cc2O)-c2nc(cs2)C(=O)NC(C(C)O)C(=O)NC(=C(C)OC)c2nc(cs2)C(=O)NC2c4nc(cs4)C(=O)NC(COC(=O)c4c5c6c(cccc6n4O)COC(=O)C(OC4CC(C)(O)C(N(C)C)C(C)O4)C2OC5)c2nc-3cs2)n1)C(N)=O (stereo not drawn) |  |  | ICR mice, Streptococcus pneumoniae ATCC 49169 infected, immunocompromised, blood | intravenous, 16 mg/kg/day twice daily |  | MRT(0-t) | 5.81 h |
| CC[C@H](C)[C@@H](C(=O)N[C@@H](CC(C)C)C(=O)N[C@@H](CO)C(=O)N[C@@H](CO)C(=O)N[C@H](C(=O)N[C@@H](CC(N)=O)C(=O)N[C@H](C(=O)NCC(=O)N[C@@H](CO)C(=O)N[C@@H](CC(N)=O)C(=O)N[C@H](C(=O)N[C@@H](Cc1ccc(O)cc1)C(N)=O)[C@@H](C)O)C(C)C)[C@@H](C)O)N(C)C(=O)[C@H](C)NC(=O)CN(C)C(=O)[C@H](Cc1ccccc1)NC(=O)[C@H](CC(N)=O)NC(=O)[C@H](CC(N)=O)NC(=O)[C@H](CO)NC(=O)[C@H](CO)NC(=O)[C@H](CCCNC(=N)N)NC(=O)[C@H](Cc1c[nH]cn1)NC(=O)[C@H](CC(C)C)NC(=O)[C@H](Cc1ccccc1)NC(=O)[C@H](CCC(=O)O)NC(=O)[C@H](C)NC(=O)[C@H](CC(C)C)NC(=O)[C@H](CCCNC(=N)N)NC(=O)[C@H](CCC(N)=O)NC(=O)[C@@H](NC(=O)[C@H](C)NC(=O)[C@@H]1CSSC[C@H](NC(=O)[C@H](CCCNC(=N)N)NC(=O)CC[C@H](NC(=O)CCCCCCCCCCCCCCCCCCC(=O)O)C(=O)O)C(=O)N[C@@H](CC(N)=O)C(=O)N[C@@H]([C@@H](C)O)C(=O)N[C@@H](C)C(=O)N[C@@H]([C@@H](C)O)C(=O)N1)[C@@H](C)O | CALCR | cAMP, agonist |  |  |  | EC50 | 0.562 nM |
| Cc1nn(-c2cccc(N)c2)c(=O)c2cnc(Nc3ccc(N4CCNCC4)cc3)nc12 | ROS1 (Homo sapiens, UniProt P08922) | enzyme activity, inhibitor |  |  |  | IC50 | > 10 µM |
| Fc1cccc(COc2ccc(Nc3ncnc4ccc(-c5ccccc5)cc34)cc2Cl)c1 | Leishmania major | intracellular amastigote growth, luciferase | RAW264.7 macrophages |  |  | EC50 | > 15000 nM |
| Cc1ncsc1-c1ccc(CNC(=O)[C@@H]2C[C@@H](O)CN2C(=O)[C@@H](NC(=O)C2(F)CC2)C(C)(C)C)c(OCCC2CCN(c3nc(N(C)CCNC(=O)C(C)C)nc(N4CCn5nnc(CO)c5C4)n3)CC2)c1 | VHL/BRD9 with Elongin B/C | ternary complex formation, AlphaScreen |  | added: 50 nM His-BRD9 and 20 nM biotin-VCB |  | EC50 | 67 nM |
| COc1cc(C2C(NC(=O)c3ccc(NC(=O)OC(C)(C)C)cc3)(C(=O)O)C(c3ccc(OC(=O)c4cccs4)c(OC)c3)C2(NC(=O)c2ccc(NC(=O)OC(C)(C)C)cc2)C(=O)O)ccc1OC(=O)c1cccs1 (stereo not drawn) | GLP1R (Homo sapiens, UniProt P43220, F230A) | cAMP, agonist |  |  |  | EC50 | 195 nM |
| Cn1c(=O)n(C2CCC(=O)NC2=O)c2ccc(C3CCN(CC(=O)Nc4cccc(CS(=O)(=O)N5CC[C@H](Nc6cccc(-c7sc(C(=O)O)c(OCC(=O)O)c7Cl)c6)CC5(C)C)c4)CC3)cc21 (stereo partly drawn) | ACP1 (Homo sapiens, UniProt P24666) | phosphatase activity |  | added: DiFMUP substrate |  | EC50 | > 10000 nM |
| COc1ccc2[nH]c(-c3cccc4ccccc34)c(CCNC(=O)CI)c2n1 | MTNR1B (Homo sapiens, UniProt P49286) | β-arrestin recruitment, agonist |  |  |  | EC50 | 4790 nM |
| CC[C@H](C)[C@@H](C(=O)N[C@@H](CC(C)C)C(=O)N[C@@H](CO)C(=O)N[C@@H](CO)C(=O)N[C@H](C(=O)N[C@@H](CCC(=O)O)C(=O)N[C@H](C(=O)NCC(=O)N[C@@H](CO)C(=O)N[C@@H](CO)C(=O)N[C@H](C(=O)N1CCC[C@H]1C(N)=O)[C@@H](C)O)C(C)C)[C@@H](C)O)N(C)C(=O)[C@H](C)NC(=O)CN(C)C(=O)[C@H](Cc1ccccc1)NC(=O)[C@H](CO)NC(=O)[C@H](CO)NC(=O)[C@H](CCCNC(=N)N)NC(=O)[C@H](CCC(N)=O)NC(=O)[C@H](CC(C)C)NC(=O)[C@H](Cc1ccccc1)NC(=O)[C@H](Cc1c[nH]cn1)NC(=O)[C@H](C)NC(=O)[C@H](CC(C)C)NC(=O)[C@H](CCCNC(=N)N)NC(=O)[C@H](CCC(=O)O)NC(=O)[C@@H](NC(=O)[C@H](C)NC(=O)[C@@H]1CSSC[C@H](NC(=O)[C@H](CCCNC(=N)N)NC(=O)CC[C@H](NC(=O)CCCCCCCCCCCCCCCCCCC(=O)O)C(=O)O)C(=O)NCC(=O)N[C@@H]([C@@H](C)O)C(=O)N[C@@H](C)C(=O)N[C@@H]([C@@H](C)O)C(=O)N1)[C@@H](C)O | CALCR | cAMP, agonist |  |  |  | EC50 | 0.0871 nM |

Repeated from above:
| SMILES | target or system | assay | test system | setting | how to read | endpoint | result |
| --- | --- | --- | --- | --- | --- | --- | --- |
| CC[C@H](C)[C@@H](C(=O)N[C@@H](CC(C)C)C(=O)N[C@@H](CO)C(=O)N[C@@H](CO)C(=O)N[C@H](C(=O)N[C@@H](CC(N)=O)C(=O)N[C@H](C(=O)NCC(=O)N[C@@H](CO)C(=O)N[C@@H](CC(N)=O)C(=O)N[C@H](C(=O)N[C@@H](Cc1ccc(O)cc1)C(N)=O)[C@@H](C)O)C(C)C)[C@@H](C)O)N(C)C(=O)[C@H](C)NC(=O)CN(C)C(=O)[C@H](Cc1ccccc1)NC(=O)[C@H](CC(N)=O)NC(=O)[C@H](CC(N)=O)NC(=O)[C@H](CO)NC(=O)[C@H](CO)NC(=O)[C@H](CCCNC(=N)N)NC(=O)[C@H](Cc1c[nH]cn1)NC(=O)[C@H](CC(C)C)NC(=O)[C@H](Cc1ccccc1)NC(=O)[C@H](CCC(=O)O)NC(=O)[C@H](C)NC(=O)[C@H](CC(C)C)NC(=O)[C@H](CCCNC(=N)N)NC(=O)[C@H](CCC(N)=O)NC(=O)[C@@H](NC(=O)[C@H](C)NC(=O)[C@@H]1CSSC[C@H](NC(=O)[C@H](CCCNC(=N)N)NC(=O)CC[C@H](NC(=O)CCCCCCCCCCCCCCCCCCC(=O)O)C(=O)O)C(=O)N[C@@H](CC(N)=O)C(=O)N[C@@H]([C@@H](C)O)C(=O)N[C@@H](C)C(=O)N[C@@H]([C@@H](C)O)C(=O)N1)[C@@H](C)O | CALCR | cAMP, agonist |  |  |  | EC50 | 0.562 nM |
| COc1cc(C2C(NC(=O)c3ccc(NC(=O)OC(C)(C)C)cc3)(C(=O)O)C(c3ccc(OC(=O)c4cccs4)c(OC)c3)C2(NC(=O)c2ccc(NC(=O)OC(C)(C)C)cc2)C(=O)O)ccc1OC(=O)c1cccs1 (stereo not drawn) | GLP1R (Homo sapiens, UniProt P43220, F230A) | cAMP, agonist |  |  |  | EC50 | 195 nM |
